Experimental data collected from several papers.
Compare with care: the assays were run in different laboratories. Numbers after ± are the reported error. Non-standard residues stand in square brackets, D forms with d. No end group written: not given here.
ALPI: Intestinal-type alkaline phosphatase (ALPI, Bos taurus, UniProt P19111)
UniProt P19111, sequence (whole entry, looked up): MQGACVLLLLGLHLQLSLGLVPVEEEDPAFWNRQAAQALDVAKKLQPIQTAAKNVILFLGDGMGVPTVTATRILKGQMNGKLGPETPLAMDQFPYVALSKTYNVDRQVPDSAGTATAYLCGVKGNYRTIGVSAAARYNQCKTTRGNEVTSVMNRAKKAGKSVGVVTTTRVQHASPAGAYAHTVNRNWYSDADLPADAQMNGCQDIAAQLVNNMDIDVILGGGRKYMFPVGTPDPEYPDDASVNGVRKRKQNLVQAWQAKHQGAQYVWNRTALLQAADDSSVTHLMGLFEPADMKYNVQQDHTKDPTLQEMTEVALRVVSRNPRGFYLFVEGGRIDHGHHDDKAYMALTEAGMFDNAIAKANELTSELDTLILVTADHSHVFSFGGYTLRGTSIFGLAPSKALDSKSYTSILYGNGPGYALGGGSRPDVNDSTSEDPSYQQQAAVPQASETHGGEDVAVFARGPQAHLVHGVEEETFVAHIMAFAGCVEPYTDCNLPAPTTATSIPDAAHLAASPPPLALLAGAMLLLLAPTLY
PIM1: Serine/threonine-protein kinase pim-1 (PIM1, Homo sapiens, UniProt P11309)
UniProt P11309, sequence (whole entry, looked up): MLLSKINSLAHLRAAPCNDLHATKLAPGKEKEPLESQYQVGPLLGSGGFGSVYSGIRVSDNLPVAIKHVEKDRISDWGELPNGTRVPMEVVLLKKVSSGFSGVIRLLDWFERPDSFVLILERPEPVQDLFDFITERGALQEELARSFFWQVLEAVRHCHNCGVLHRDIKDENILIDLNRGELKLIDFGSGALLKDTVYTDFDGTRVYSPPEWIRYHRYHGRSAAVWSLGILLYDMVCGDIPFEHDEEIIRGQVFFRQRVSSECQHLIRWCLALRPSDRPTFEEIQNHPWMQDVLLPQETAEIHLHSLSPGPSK
B1: UGT1A9 (Homo sapiens, UniProt O60656); chain GKLLVVPMDGSHWFTMRSVVEKLILRGHEVVVVMPEVSWQLGRSLNCTVKTYSTSYTLEDLDREFKAFAHAQWKAQVRSIYSLLMGSYNDIFDLFFSNCRSLFKDKKLVEYLKESSFDAVFLDPFDNCGLIVAKYFSLPSVVFARGILCHYLEEGAQCPAPLSYVPRILLGFSDAMTFKERVRNHIMHLEEHLLCHRFFKNALEIASEILQTPVTEYDLYSHTSIWLLRTDFVLDYPKPVMPNMIFIGGINCHQGKPLPMEFEAYINASGEHGIVVFSLGSMVSEIPEKKAMAIADALGKIPQTVLWRYTGTRPSNLANNTILVKWLPQNDLLGHPMTRAFITHAGSHGVYESICNGVPMVMMPLFGDQMDNAKRMETKGAGVTLNVLEMTSEDLENALKAVINDKSYKENIMRLSSLHKDRPVEPLDLAVFWVEFVMRHKGAPHLRPAAHDLTWYQYHSLDVIGFLLAVVLTVAFITFKCCAYGYRKCLGKKGRVKKAHKSKTH
UniProt P05804, sequence (whole entry, looked up): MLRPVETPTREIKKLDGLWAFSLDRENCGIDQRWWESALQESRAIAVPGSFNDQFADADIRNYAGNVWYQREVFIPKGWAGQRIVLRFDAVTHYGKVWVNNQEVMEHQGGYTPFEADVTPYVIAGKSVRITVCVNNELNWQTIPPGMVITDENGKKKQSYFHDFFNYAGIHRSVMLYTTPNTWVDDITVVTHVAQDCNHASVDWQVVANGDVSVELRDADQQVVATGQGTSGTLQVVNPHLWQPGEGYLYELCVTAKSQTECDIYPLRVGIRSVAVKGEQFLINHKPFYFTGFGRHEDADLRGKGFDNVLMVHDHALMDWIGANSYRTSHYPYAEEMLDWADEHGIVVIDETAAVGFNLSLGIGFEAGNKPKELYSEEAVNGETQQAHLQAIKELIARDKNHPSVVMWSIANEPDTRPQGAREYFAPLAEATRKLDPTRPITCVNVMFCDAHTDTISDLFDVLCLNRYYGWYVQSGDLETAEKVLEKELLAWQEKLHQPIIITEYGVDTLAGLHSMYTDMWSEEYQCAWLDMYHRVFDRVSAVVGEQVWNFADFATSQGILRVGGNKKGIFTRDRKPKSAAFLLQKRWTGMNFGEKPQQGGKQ
UniProt P53853, sequence (whole entry, looked up): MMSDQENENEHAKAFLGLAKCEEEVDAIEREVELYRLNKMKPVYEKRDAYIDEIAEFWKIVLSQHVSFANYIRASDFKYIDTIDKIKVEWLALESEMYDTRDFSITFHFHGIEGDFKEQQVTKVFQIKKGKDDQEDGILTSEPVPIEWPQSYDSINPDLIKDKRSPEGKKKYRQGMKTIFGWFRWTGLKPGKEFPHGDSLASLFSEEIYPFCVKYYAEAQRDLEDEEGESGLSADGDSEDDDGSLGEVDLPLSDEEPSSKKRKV
UniProt Q07794, sequence (whole entry, looked up): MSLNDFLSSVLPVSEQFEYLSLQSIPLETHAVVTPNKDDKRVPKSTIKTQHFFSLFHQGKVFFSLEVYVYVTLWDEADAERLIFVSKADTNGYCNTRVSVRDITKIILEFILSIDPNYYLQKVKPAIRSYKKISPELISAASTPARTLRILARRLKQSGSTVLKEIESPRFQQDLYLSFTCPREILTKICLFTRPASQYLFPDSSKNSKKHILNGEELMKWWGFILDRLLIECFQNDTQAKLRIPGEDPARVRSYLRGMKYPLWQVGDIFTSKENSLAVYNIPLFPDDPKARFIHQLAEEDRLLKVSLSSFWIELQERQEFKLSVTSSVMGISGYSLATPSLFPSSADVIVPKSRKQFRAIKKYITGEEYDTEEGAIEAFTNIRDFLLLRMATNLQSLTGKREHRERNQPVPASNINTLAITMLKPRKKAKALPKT
UniProt O95476, sequence (whole entry, looked up): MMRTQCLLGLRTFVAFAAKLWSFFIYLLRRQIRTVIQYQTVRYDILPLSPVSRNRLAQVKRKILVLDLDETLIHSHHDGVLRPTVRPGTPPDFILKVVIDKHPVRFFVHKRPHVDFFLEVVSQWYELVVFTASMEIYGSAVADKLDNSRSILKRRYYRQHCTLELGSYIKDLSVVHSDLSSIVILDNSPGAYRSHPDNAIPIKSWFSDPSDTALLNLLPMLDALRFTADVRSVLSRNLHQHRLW

| Substance | tested on | test | system | setting | endpoint | result |
| --- | --- | --- | --- | --- | --- | --- |
| O=[N+]([O-])c1ccccc1O[C@@H]1O[C@H](CO)[C@H](O)[C@H](O)[C@H]1O | beta-D-galactosidase (Paenibacillus sp. 3179) | substrate |  | pH 7.4, 50 °C, rough estimate, not saturated | Km | 570 ± 120 µM |
| Cc1cc(=O)oc2cc(O[C@@H]3O[C@H](C(=O)O)[C@@H](O)[C@H](O)[C@H]3O)ccc12 | Beta-glucuronidase (uidA, Escherichia coli, UniProt P05804) | enzyme activity, substrate |  |  | Km | 102 µM |
| N=C(N)NCCCC(NC(=O)c1ccccc1)C(=O)Nc1ccc2ccccc2c1 (racemic) | cathepsin H, Bubalus bubalis lung | substrate |  | pH 6.5, 37 °C, racemic DL substrate | Km | 4320 µM |
| YFCHQYL |  |  | peptide, human polyclonal IgM RF WEAK | concentration not given, 5 µg/mL mAb II-481 coated, together with: RF at 50% max binding concentration | inhibition | 0% |
| B1 (UGT1A9) | O=C1OC[C@H](Cc2cccc(O)c2)[C@H]1Cc1cccc(O)c1 | steady-state kinetics |  | pH 7.4, 37 °C | Vmax/Km | 92 µL/min/mg |
| Nc1ncnc2c1ncn2[C@@H]1O[C@H](COP(=O)(O)OP(=O)(O)OP(=O)(O)O)[C@@H](O)[C@H]1O | ALPI |  |  | pH 8 | Km | 0.9 ± 0.2 µM |
| NYLAWYQ |  |  | peptide, human polyclonal IgM RF WEAK | concentration not given, 5 µg/mL mAb II-481 coated, together with: RF at 50% max binding concentration | inhibition | 30% |
| RYAHPTGMYY | PIM1 | substrate, coupled enzyme | peptide | pH 7.4, room temperature, together with: 1 mM ATP, 20 mM MgCl2 | Km | > 600 µM |
| DNMNT[pS]EDE (phospho-Ser6; pS = N[C@@H](COP(=O)(O)O)C(=O)O) | CTD nuclear envelope phosphatase 1 (CTDNEP1, Homo sapiens, UniProt O95476) | substrate, MESG-coupled phosphate release |  | 25 °C | Km | ~15000 µM |
| O=C(O)CCS | Azotobacter vinelandii MDO H157N | substrate |  | 37 °C, together with: O2 | Km | 12 ± 2 µM |
| Nc1ncnc2c1ncn2[C@@H]1O[C@H](COP(=O)(O)OP(=O)(O)OP(=O)(O)O)[C@@H](O)[C@H]1O | Threonine-phosphate decarboxylase (Methanosarcina mazei, UniProt Q8PVB1) | enzyme activity, substrate |  | 25 °C, oxic purification, possibly oxidised, together with: L-threonine saturating, MgCl2 5 mM | Km | 48000 ± 2000 µM |
| C[C@H](N)C(=O)O | ALAS/AONS fusion (mouse, E. coli) | substrate, coupled spectrophotometric |  | pH 7.5, 30 °C, AONS site, together with: pimeloyl-CoA | Km | 250 ± 50 µM |
| RYRHPTPMYY | PIM1 | substrate, coupled enzyme | peptide | pH 7.4, room temperature, together with: 1 mM ATP, 20 mM MgCl2 | Km | 200 ± 26 µM |
| [Na+].[Na+].[Na+].[O]=[V]([O-])([O-])[O-] | ALPI |  |  | 2.28 µM, together with: DiFMUP substrate | Km | 0.57 ± 0.09 µM |
| O=[N+]([O-])c1ccc(OP(=O)(O)O)cc1 | alkaline phosphatase | substrate | Lymnaea acuminata, nervous tissue | 37 °C, no inhibitor | Km | 20.2 µM |
| CC(C)C[C@H](N)C(=O)Nc1ccc2ccccc2c1 | cathepsin H (Bubalus bubalis lung) | substrate, 2-naphthylamine release |  | pH 6.5, 37 °C | Km | 22 µM |
| O=[N+]([O-])c1ccc(OP(=O)(O)O)cc1 | Trypanosoma evansi protein-tyrosine phosphatase |  |  | 37 °C, together with: pNPP substrate | Km | 3440 µM |
| RYRDPTGMYY | PIM1 | substrate, coupled enzyme | peptide | pH 7.4, room temperature, together with: 1 mM ATP, 20 mM MgCl2 | Km | 1300 ± 53 µM |
| Nc1ncnc2c1ncn2[C@H]1C[C@H](O)[C@@H](COP(=O)(O)OP(=O)(O)OP(=O)(O)O)O1 | Bacillus phage GA-1 DNA polymerase | TP-primed initiation, substrate |  | 30 °C, together with: chimeric TP N-G primer, GA-1 TP-DNA | Km | 10 µM |
| O=C(O)CCCCCCCCCCCCC(=O)O | Marasmius rotula unspecific peroxygenase | substrate, GC-MS |  | together with: H2O2 | Km | 557 ± 295 µM |
| CC(=O)SCCNC(=O)CCNC(=O)[C@H](O)C(C)(C)COP(=O)(O)OP(=O)(O)OC[C@H]1O[C@@H](n2cnc3c(N)ncnc32)[C@H](O)[C@@H]1OP(=O)(O)O | VPS75/RTT109 (Saccharomyces cerevisiae, UniProt P53853+Q07794) |  |  | pH 7.5 | Km | 0.3 ± 0.1 µM |
| C/C1=C2/N[C@H]([C@H](CC(N)=O)[C@@]2(C)CCC(=O)NC[C@@H](C)OP(=O)(O)O[C@H]2[C@@H](O)[C@@H](n3cnc4cc(C)c(C)cc43)O[C@@H]2CO)[C@]2(C)N=C(/C(C)=C3N=C(/C=C4N=C1[C@@H](CCC(N)=O)C\4(C)C)[C@@H](CCC(N)=O)[C@]\3(C)CC(N)=O)[C@@H](CCC(N)=O)[C@]2(C)CC(N)=O.[Co] | cobA (Limosilactobacillus reuteri, UniProt Q50EJ2, F112A) | enzyme activity, substrate |  | anoxic, Ti(III) citrate reduced, together with: ATP | Km | 1.9 ± 0.5 µM |
